Measured values from different studies.
Numbered parts are unrelated; each lists some results of a single study. “And” joins repeats or separate records; there may be more than shown.
Sequence of UniProt P53350 (whole entry, looked up): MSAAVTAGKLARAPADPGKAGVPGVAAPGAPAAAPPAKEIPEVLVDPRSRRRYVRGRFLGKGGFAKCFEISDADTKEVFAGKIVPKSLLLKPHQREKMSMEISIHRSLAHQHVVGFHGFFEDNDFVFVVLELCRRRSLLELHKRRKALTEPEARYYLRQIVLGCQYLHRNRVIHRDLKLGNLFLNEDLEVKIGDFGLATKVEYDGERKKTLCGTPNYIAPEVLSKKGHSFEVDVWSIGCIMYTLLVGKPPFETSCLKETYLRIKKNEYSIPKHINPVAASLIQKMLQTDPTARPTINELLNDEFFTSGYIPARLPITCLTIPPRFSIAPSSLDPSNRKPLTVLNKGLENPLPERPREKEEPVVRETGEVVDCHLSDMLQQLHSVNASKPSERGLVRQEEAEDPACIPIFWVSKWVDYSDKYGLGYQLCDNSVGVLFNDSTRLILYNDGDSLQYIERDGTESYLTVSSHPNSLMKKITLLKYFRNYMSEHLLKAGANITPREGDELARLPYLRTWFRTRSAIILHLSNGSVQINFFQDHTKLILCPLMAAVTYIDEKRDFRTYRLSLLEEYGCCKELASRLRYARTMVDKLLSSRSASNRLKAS
Sequence of UniProt Q12851 (whole entry, looked up): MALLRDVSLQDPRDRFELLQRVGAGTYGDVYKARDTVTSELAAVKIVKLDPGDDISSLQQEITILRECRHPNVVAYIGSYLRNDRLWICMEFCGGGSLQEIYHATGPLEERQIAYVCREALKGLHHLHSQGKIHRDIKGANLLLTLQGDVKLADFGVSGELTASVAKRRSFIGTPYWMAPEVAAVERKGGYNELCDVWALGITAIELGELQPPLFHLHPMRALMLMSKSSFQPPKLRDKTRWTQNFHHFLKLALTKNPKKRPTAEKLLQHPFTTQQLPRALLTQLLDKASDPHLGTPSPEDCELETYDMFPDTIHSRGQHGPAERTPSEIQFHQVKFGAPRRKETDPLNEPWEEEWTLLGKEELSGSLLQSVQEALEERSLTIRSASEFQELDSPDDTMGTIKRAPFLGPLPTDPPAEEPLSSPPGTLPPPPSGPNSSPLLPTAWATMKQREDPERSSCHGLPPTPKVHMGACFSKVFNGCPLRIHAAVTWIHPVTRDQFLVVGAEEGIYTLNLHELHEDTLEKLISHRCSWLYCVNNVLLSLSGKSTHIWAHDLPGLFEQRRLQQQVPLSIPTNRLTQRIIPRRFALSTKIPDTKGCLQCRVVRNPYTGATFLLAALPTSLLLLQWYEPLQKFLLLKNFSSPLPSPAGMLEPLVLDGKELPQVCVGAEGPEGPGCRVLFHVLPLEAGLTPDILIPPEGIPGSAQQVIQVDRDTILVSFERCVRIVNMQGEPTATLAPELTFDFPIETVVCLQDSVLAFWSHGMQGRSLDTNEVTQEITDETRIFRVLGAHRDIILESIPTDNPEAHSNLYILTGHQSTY
Sequence of UniProt P51956 (whole entry, looked up): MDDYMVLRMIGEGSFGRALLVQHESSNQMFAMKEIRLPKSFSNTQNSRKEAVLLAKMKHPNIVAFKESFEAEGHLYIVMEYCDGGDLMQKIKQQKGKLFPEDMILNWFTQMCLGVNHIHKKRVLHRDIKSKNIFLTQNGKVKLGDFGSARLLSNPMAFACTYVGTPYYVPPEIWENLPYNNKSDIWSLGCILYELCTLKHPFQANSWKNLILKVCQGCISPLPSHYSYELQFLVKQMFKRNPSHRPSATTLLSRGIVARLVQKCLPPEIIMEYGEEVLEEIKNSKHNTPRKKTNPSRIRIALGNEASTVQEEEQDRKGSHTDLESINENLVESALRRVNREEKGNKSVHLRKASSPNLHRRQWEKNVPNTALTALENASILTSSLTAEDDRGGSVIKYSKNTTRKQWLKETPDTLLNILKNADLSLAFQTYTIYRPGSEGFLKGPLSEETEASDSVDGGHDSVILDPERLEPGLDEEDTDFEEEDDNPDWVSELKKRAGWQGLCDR
Sequence of UniProt Q09013 (whole entry, looked up): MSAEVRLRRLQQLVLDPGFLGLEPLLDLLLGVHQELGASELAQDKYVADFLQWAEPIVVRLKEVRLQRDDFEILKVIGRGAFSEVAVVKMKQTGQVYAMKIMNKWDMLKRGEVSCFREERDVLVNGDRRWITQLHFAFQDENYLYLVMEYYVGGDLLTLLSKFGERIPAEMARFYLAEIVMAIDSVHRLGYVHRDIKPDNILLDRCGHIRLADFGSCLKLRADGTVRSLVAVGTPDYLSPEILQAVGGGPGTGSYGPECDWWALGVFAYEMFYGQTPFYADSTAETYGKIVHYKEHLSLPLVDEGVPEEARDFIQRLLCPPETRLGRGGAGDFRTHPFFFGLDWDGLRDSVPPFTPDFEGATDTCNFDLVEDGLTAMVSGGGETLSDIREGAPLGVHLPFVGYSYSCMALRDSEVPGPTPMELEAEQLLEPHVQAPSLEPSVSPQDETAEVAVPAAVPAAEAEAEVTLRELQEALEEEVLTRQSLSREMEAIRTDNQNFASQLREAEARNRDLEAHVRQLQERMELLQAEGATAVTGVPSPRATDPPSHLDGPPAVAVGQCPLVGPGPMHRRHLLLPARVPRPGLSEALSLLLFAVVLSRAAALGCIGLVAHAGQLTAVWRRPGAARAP
Sequence of UniProt Q9H0K1 (whole entry, looked up): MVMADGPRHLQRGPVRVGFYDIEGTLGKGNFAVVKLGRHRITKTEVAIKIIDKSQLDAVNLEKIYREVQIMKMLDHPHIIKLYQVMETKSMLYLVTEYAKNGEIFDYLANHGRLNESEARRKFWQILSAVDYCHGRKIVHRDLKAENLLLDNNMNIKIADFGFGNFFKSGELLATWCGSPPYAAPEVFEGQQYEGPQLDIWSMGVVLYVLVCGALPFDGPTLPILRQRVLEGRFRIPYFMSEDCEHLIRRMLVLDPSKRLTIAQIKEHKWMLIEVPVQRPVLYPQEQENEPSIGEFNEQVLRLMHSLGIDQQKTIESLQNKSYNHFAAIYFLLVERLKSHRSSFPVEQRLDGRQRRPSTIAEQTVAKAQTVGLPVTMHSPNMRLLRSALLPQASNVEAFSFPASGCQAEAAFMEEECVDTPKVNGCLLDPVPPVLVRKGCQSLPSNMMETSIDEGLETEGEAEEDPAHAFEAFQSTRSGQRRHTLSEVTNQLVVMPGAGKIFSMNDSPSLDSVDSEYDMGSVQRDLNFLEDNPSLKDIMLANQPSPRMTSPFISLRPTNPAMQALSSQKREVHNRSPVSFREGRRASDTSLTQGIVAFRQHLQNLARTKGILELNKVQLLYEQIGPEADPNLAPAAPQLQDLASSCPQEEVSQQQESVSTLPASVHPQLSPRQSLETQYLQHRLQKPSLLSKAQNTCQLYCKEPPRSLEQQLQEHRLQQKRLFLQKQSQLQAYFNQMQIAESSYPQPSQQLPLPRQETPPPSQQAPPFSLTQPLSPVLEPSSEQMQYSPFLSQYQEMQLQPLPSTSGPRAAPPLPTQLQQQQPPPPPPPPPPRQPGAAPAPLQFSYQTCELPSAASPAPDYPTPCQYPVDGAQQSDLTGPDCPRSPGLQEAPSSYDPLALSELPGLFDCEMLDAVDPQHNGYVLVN

Series 1 — technique: Incucyte 3D growth; tested at: 30 µM; direction: higher = more growth; endpoint: spheroid area
Structure (SMILES): CC(C)(C(=O)O)[C@H](NC(=O)Cc1cccc(I)c1)c1ccc2oc(=O)[nH]c2c1
PC-9; 198 h: 1.67e+09 a.u. and 1.74e+09 a.u. and 1.7e+09 a.u. and 1.76e+09 a.u. and 1.65e+09 a.u. and 1.73e+09 a.u.
MEL-JUSO; 66.52 h: 1.19e+07 a.u. and 1.23e+07 a.u. and 1.31e+07 a.u. and 1.29e+07 a.u. and 1.36e+07 a.u. and 7.76e+06 a.u.
MEL-JUSO; 162.52 h: 1.75e+07 a.u. and 2.11e+07 a.u. and 1.93e+07 a.u. and 1.63e+07 a.u. and 1.55e+07 a.u. and 1.79e+07 a.u.
A375; 276.52 h: 1.75e+08 a.u. and 1.84e+08 a.u. and 1.79e+08 a.u. and 2.02e+08 a.u.
IPC-298; 198 h: 2.81e+07 a.u. and 3.56e+07 a.u. and 2.76e+07 a.u. and 2.85e+07 a.u. and 2.26e+07 a.u. and 3.09e+07 a.u.
A375; 90.52 h: 5.67e+07 a.u. and 5.78e+07 a.u. and 5.85e+07 a.u. and 5.86e+07 a.u. and 7.12e+07 a.u. and 4.59e+07 a.u.

Series 2 — effect on: cell-free assay; technique: competition with immobilised ligand; tested at: 1 µM; endpoint: remaining binding
SMILES: CC1=C(C#N)[C@@H](c2ccc3[nH]nc(C)c3c2)C(C#N)=C(c2ccc(Cl)cc2)N1
EGFR (Homo sapiens, UniProt P00533, L858R): 89.5%
PLK1 (Homo sapiens, UniProt P53350): 100%
MAP4K2 (Homo sapiens, UniProt Q12851): 100%
DMPK (Homo sapiens, UniProt Q09013): 100%
NEK3 (Homo sapiens, UniProt P51956): 100%
SIK2 (Homo sapiens, UniProt Q9H0K1): 100%

Series 3 — effect on: enzyme activity; action: inhibitor; tested at: 0.5 µM; baseline: control; endpoint: remaining activity
Target: Protein kinase C beta type, isoform beta-II (PRKCB, Homo sapiens, UniProt P05771)
Sequence of UniProt P05771 (whole entry, looked up): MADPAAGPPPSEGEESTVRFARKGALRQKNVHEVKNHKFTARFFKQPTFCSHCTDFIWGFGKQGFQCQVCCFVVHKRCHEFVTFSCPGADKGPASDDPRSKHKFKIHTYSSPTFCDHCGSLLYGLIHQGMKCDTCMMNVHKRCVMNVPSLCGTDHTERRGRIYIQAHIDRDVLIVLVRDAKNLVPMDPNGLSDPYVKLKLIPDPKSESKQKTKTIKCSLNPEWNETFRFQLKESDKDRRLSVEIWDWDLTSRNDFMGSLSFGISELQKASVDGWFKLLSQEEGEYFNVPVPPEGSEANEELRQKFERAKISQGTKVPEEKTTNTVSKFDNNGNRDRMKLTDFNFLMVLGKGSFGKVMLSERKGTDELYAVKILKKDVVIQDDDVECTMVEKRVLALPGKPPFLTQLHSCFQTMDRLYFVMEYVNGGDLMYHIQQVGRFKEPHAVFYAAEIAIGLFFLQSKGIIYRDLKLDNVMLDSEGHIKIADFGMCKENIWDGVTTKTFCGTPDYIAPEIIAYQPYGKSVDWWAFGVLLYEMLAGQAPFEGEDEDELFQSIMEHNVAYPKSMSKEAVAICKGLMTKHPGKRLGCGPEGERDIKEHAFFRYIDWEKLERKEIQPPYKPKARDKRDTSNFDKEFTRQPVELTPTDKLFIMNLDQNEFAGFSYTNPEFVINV
CNC(=O)c1cc(Oc2ccc(NC(=O)Nc3ccc(Cl)c(C(F)(F)F)c3)cc2)ccn1: 97.5%
CC(C)[C@H](CO)Nc1nc(Nc2cc(N)cc(Cl)c2)c2ncn(C(C)C)c2n1: 97.3%
O=S(=O)(c1cccc2cnccc12)N1CCCNCC1: 101%
COc1cc2nccc(Oc3ccc(NC(=S)NC(=O)c4ccccc4C)cc3)c2cc1OC: 102%
N#CC(C#N)=C(N)/C(C#N)=C/c1ccc(O)cc1: 111%
O=C(Nc1cccc(Nc2cc(Nc3cccc(C(F)(F)F)c3)ncn2)c1)C1CC1: 107%
O=C(O)c1ccc2c3c1cccc3c(=O)n1c3ccccc3nc21: 97%
O=C1NC(=O)c2cc(Nc3ccc(F)cc3)c(Nc3ccc(F)cc3)cc21: 15.5%
N#CCCc1ccc2c(c1)-c1[nH]c3ccc([N+](=O)[O-])cc3c1CC(=O)N2: 76.3%
COc1cc2ncnc(Nc3ccc(F)c(Cl)c3)c2cc1OCCCN1CCOCC1: 100%
COc1cc2ncnc(Nc3ccc(Oc4ccccc4)cc3)c2cc1OC: 92.8%
CCOC(=O)c1c(C)[nH]c(/C=C2\C(=O)Nc3ccccc32)c1C: 91.5%
Nc1[nH]nc2nc3ccccc3nc12: 88.5%
O=c1c2ccccc2[nH]c(=S)n1CCN1CCC(=C(c2ccc(F)cc2)c2ccc(F)cc2)CC1: 98.2%
OCC(O)CCON=C1C(c2c(O)[nH]c3ccccc23)=Nc2ccccc21 (stereo not shown): 88%
Cc1ccc(Nc2nccc(N(C)c3ccc4c(C)n(C)nc4c3)n2)cc1S(N)(=O)=O: 96.7%
O=C1NC(=O)C(c2cn(CCCO)c3ncccc23)=C1c1cnccn1: 102%

Series 4 — species: human; sample: microsomes or S9; tested at: 2 µM; time: 0.5 h; endpoint: remaining compound
Cc1c(CN2CCOCC2)c(=O)n(-c2ccccc2)n1C: > 100%
COc1cc(CC2CC(c3cc(OC)c4c(c3)OCO4)=NO2)cc2c1OCO2 (stereo not shown): 24.2%
CCOc1ccc(S(=O)(=O)N2CCC(Oc3nccnc3C#N)C2)cc1C (stereo not shown): 0.276%
Cc1ccc(NC(=O)Nc2ccc(Cc3ccc(NC(=O)OC(C)(C)C)cc3)cc2)cc1: 62.5%
COC(=O)c1cccnc1C1=NC(C)(C(C)C)C(=O)N1 (stereo not shown): > 100%
CC(=O)/C(=C1\NC(C)(C)Cc2cc(C)c(C)cc21)c1ccccc1: 4.8%
CN1CCN(C(=O)N2CCCN(C(=O)C[C@@H](Cc3cc(F)c(F)cc3F)NC(=O)OC(C)(C)C)CC2)CC1: 12.5%
Cc1cc(Br)cc(C(=O)c2c(C(C)C)c(=O)[nH]c(=O)n2Cc2cc(F)nc(F)c2)c1: 60.5%

A few entries again (series 3):
N#CCCc1ccc2c(c1)-c1[nH]c3ccc([N+](=O)[O-])cc3c1CC(=O)N2: 76.3%
O=C1NC(=O)c2cc(Nc3ccc(F)cc3)c(Nc3ccc(F)cc3)cc21: 15.5%
O=S(=O)(c1cccc2cnccc12)N1CCCNCC1: 101%
O=C1NC(=O)C(c2cn(CCCO)c3ncccc23)=C1c1cnccn1: 102%
O=C(Nc1cccc(Nc2cc(Nc3cccc(C(F)(F)F)c3)ncn2)c1)C1CC1: 107%
